# Results collected from several papers.
# Compare with care: the assays were run in different laboratories. “And” joins repeats or separate records; there may be more than shown. ± marks the error that the study gave.
# B1: SLCO1B1 (Homo sapiens, UniProt Q9Y6L6); chain MDQNQHLNKTAEAQPSENKKTRYCNGLKMFLAALSLSFIAKTLGAIIMKSSIIHIERRFEISSSLVGFIDGSFEIGNLLVIVFVSYFGSKLHRPKLIGIGCFIMGIGGVLTALPHFFMGYYRYSKETNINSSENSTSTLSTCLINQILSLNRASPEIVGKGCLKESGSYMWIYVFMGNMLRGIGETPIVPLGLSYIDDFAKEGHSSLYLGILNAIAMIGPIIGFTLGSLFSKMYVDIGYVDLSTIRITPTDSRWVGAWWLNFLVSGLFSIISSIPFFFLPQTPNKPQKERKASLSLHVLETNDEKDQTANLTNQGKNITKNVTGFFQSFKSILTNPLYVMFVLLTLLQVSSYIGAFTYVFKYVEQQYGQPSSKANILLGVITIPIFASGMFLGGYIIKKFKLNTVGIAKFSCFTAVMSLSFYLLYFFILCENKSVAGLTMTYDGNNPVTSHRDVPLSYCNSDCNCDESQWEPVCGNNGITYISPCLAGCKSSSGNKKPIVFYNCSCLEVTGLQNRNYSAHLGECPRDDACTRKFYFFVAIQVLNLFFSALGGTSHVMLIVKIVQPELKSLALGFHSMVIRALGGILAPIYFGALIDTTCIKWSTNNCGTRGSCRTYNSTSFSRVYLGLSSMLRVSSLVLYIILIYAMKKKYQEKDINASENGSVMDEANLESLNKNKHFVPSAGADSETHC
# Chain of UniProt O15438 (whole entry, looked up): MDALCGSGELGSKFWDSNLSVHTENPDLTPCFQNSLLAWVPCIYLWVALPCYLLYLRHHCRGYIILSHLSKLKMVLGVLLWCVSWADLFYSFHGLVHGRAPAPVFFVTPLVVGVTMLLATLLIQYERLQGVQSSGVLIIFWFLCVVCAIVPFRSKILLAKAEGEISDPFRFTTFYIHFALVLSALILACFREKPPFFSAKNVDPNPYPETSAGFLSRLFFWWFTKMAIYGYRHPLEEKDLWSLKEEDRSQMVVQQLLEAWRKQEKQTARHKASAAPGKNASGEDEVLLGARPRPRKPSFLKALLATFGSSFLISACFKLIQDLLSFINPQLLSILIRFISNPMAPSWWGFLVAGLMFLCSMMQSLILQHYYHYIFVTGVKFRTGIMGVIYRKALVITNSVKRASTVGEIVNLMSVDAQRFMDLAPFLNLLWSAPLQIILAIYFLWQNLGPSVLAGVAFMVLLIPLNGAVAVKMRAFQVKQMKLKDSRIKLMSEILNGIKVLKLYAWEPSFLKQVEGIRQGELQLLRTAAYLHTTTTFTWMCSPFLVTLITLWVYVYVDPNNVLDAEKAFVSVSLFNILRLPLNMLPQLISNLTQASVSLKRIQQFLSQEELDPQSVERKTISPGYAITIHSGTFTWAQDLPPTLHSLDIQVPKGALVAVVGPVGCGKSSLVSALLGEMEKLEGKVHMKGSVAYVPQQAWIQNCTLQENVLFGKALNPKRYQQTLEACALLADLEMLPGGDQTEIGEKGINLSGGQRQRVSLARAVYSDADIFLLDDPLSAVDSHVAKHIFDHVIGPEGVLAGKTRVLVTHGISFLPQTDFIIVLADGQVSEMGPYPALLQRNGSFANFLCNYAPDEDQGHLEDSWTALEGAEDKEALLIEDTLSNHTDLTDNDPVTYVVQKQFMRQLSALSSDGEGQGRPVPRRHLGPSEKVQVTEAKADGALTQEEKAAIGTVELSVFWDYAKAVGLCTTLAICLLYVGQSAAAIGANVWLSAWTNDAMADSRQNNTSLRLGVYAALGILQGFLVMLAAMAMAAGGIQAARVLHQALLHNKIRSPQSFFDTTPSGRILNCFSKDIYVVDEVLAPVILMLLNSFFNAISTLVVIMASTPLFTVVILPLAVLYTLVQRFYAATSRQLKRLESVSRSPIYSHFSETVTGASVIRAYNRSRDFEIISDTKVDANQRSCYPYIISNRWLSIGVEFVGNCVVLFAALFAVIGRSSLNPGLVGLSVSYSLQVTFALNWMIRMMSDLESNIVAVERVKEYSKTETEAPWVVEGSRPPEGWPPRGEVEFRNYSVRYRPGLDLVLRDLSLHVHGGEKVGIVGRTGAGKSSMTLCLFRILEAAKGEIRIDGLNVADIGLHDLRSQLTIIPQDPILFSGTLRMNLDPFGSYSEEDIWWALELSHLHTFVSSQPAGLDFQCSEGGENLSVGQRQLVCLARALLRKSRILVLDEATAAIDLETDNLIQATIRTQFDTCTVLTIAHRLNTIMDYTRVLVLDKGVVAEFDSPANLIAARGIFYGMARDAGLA
# Chain of UniProt Q92887 (whole entry, looked up): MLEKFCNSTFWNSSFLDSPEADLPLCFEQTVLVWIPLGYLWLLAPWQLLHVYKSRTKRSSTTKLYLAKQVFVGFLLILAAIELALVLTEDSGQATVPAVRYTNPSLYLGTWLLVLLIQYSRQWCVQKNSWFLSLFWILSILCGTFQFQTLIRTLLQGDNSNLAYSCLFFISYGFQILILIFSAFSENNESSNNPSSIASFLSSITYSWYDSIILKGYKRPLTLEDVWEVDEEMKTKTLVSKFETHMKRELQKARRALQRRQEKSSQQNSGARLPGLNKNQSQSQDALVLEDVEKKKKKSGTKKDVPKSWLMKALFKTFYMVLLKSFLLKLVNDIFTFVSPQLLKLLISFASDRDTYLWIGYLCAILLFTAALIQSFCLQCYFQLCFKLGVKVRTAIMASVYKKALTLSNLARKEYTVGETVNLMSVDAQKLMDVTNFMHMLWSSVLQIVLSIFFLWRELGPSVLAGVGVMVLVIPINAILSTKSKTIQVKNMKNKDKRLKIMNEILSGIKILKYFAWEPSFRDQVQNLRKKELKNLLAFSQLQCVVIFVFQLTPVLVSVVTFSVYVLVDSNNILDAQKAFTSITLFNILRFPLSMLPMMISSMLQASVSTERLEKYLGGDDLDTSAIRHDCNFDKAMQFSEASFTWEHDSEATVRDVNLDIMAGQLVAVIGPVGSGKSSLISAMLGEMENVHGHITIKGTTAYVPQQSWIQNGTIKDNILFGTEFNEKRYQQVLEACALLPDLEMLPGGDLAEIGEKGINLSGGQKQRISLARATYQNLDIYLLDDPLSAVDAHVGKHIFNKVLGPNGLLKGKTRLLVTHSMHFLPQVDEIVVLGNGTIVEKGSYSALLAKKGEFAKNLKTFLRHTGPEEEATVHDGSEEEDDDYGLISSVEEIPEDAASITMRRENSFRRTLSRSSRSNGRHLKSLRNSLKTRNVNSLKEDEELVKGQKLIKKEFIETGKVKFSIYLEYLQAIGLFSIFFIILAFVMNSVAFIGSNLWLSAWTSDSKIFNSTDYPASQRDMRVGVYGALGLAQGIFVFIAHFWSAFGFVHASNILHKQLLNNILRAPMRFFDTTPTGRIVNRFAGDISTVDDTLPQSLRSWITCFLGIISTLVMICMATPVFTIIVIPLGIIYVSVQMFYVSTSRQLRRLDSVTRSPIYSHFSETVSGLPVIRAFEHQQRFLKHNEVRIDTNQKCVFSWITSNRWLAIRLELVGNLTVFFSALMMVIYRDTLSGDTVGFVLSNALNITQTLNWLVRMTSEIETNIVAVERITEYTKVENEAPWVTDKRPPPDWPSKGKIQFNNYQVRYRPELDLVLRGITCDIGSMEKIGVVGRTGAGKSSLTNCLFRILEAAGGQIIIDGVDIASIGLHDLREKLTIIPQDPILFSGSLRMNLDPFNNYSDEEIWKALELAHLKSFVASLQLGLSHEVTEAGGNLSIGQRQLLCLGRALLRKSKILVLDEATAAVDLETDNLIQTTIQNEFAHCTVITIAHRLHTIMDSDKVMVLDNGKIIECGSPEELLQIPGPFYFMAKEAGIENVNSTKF
Substance,tested on,test,test system,conditions,how to read,endpoint,result
"ABCC2 (Homo sapiens, UniProt Q92887)",O=C(c1ccc(OCCN2CCCCC2)cc1)c1c(-c2ccc(O[C@@H]3O[C@H](C(=O)O)[C@@H](O)[C@H](O)[C@H]3O)cc2)sc2cc(O)ccc12,steady-state kinetics,Sf9 vesicles,"pH 7, 37 °C, not purified, together with: ATP",,Vmax,0.00239 µmol/min/mg
CCCC[C@H](NC(=O)CCCCCCCNC(=O)CN1CCN(CC(=O)O)CCN(CC(=O)O)CC1)C(=O)N[C@H]1CC(=O)NCCCC[C@@H](C(N)=O)NC(=O)[C@H](Cc2c[nH]c3ccccc23)NC(=O)[C@H](CCCNC(=N)N)NC(=O)[C@@H](Cc2ccccc2)NC(=O)[C@H](Cc2c[nH]cn2)NC1=O [technetium-99m labelled],,,"C57 mouse, heart","intravenous, 0.037 MBq, 24 h",,tissue uptake,0.04 %ID/g
N#C[C@@H]1CC(F)(F)CN1C(=O)CNC(=O)c1ccnc2ccc(OCCCN3CCN(C(=O)CN4CCN(CC(N)=O)CCN(CC(N)=O)CCN(CC(N)=O)CC4)CC3)cc12,,shake flask,n-octanol/PBS,"pH 7.4, 203Pb-labelled",,logD,-2.95 ± 0.1
CC(C)C[C@H](NC(=O)[C@H](Cc1ccc(O)cc1)NC(=O)[C@@H](CCCNC(=N)N)NC(=O)[C@@H](CO)NC(=O)[C@H](Cc1ccccc1)NC(=O)[C@H](CC1CCCCC1)NC(=O)[C@H](CC(=O)O)NC(=O)CN1CCN(CC(=O)O)CCN(CC(=O)O)CCN(CC(=O)O)CC1)C(=O)N[C@@H](Cc1c[nH]c2ccccc12)C(=O)N[C@@H](CO)C(=O)O [copper-64 labelled],,,"human, spleen","concentration not given, 3 h",,activity concentration,1520 Bq/mL and 1960 Bq/mL and 1600 Bq/mL and 1690 Bq/mL and 1580 Bq/mL and 1190 Bq/mL
N#C[C@@H]1CC(F)(F)CN1C(=O)CNC(=O)c1ccnc2ccc(OCCCN3CCN(C(=S)Nc4ccc(C[C@H]5CN(CC(N)=O)CCN(CC(N)=O)CCN(CC(N)=O)CCN5CC(N)=O)cc4)CC3)cc12,,shake flask,n-octanol/PBS,"pH 7.4, 203Pb-labelled",,logD,-2.42 ± 0.17
B1 (SLCO1B1),O=C(c1ccc(OCCN2CCCCC2)cc1)c1c(-c2ccc(O[C@@H]3O[C@H](C(=O)O)[C@@H](O)[C@H](O)[C@H]3O)cc2)sc2cc(O)ccc12,steady-state kinetics,HEK293 cells,"pH 7.4, 37 °C",,Vmax,3.58e-05 µmol/min/mg
COC1CN([C@H]2CC[C@H]([C@@]3(C)Oc4c(Cl)cc(C(=O)NCc5c(SC)cc(C)[nH]c5=O)c(C)c4O3)CC2)C1,,"RNA-seq, measured: CDC42BPA","human, whole blood","dose not given, 24 h",reference: pretreatment baseline,log2 fold change,1.05
"ABCC3 (Homo sapiens, UniProt O15438)",O=C(c1ccc(OCCN2CCCCC2)cc1)c1c(-c2ccc(O[C@@H]3O[C@H](C(=O)O)[C@@H](O)[C@H](O)[C@H]3O)cc2)sc2cc(O)ccc12,steady-state kinetics,Sf9 vesicles,"pH 7, 37 °C, not purified, together with: ATP",,Vmax,0.000213 µmol/min/mg
C[C@@H](O)[C@@H]1NC(=O)[C@H](CCCCN)NC(=O)[C@@H](Cc2c[nH]c3ccccc23)NC(=O)[C@H](Cc2ccc(O)cc2)NC(=O)[C@@H](NC(=O)[C@@H](Cc2ccccc2)NC(=O)CN2CCN(CC(=O)O)CCN(CC(=O)O)CCN(CC(=O)O)CC2)CSSC[C@@H](C(=O)N[C@H](CO)[C@@H](C)O)NC1=O [gallium-67 labelled],,gamma counting,"ICR mice, male, pancreas","iv, 11 kBq/mouse, 1 h",,tissue uptake,8.12 ± 1.4 %ID/g
CCCC[C@H](NC(=O)COCCOCCNC(=O)CN1CCN(CC(=O)O)CCN(CC(=O)O)CC1)C(=O)N[C@H]1CC(=O)NCCCC[C@@H](C(N)=O)NC(=O)[C@H](Cc2c[nH]c3ccccc23)NC(=O)[C@H](CCCNC(=N)N)NC(=O)[C@@H](Cc2ccccc2)NC(=O)[C@H](Cc2c[nH]cn2)NC1=O [technetium-99m labelled],,,"C57 mouse, liver","intravenous, 0.037 MBq, 4 h",,tissue uptake,0.25 ± 0.03 %ID/g

# A few entries again:
Substance,tested on,test,test system,conditions,how to read,endpoint,result
"ABCC3 (Homo sapiens, UniProt O15438)",O=C(c1ccc(OCCN2CCCCC2)cc1)c1c(-c2ccc(O[C@@H]3O[C@H](C(=O)O)[C@@H](O)[C@H](O)[C@H]3O)cc2)sc2cc(O)ccc12,steady-state kinetics,Sf9 vesicles,"pH 7, 37 °C, not purified, together with: ATP",,Vmax,0.000213 µmol/min/mg
